# Experimental data pooled from the literature.
# Each numbered part is a random draw from the data of one study; scales do not carry over between parts. Changes are numbered by the printed parent chain.

# Sample 1 — method: RNA Bind-n-Seq; molecule type: RNA; sample: in vitro; tested at: 100 nM; baseline: input RNA pool; direction: higher = stronger binding
# Target: RING finger protein unkempt homolog, zinc fingers 1-6, SBP tag (UNK, Homo sapiens, UniProt Q9C0B0, residues 30-357)
# Chain of UniProt Q9C0B0 (30-357, looked up): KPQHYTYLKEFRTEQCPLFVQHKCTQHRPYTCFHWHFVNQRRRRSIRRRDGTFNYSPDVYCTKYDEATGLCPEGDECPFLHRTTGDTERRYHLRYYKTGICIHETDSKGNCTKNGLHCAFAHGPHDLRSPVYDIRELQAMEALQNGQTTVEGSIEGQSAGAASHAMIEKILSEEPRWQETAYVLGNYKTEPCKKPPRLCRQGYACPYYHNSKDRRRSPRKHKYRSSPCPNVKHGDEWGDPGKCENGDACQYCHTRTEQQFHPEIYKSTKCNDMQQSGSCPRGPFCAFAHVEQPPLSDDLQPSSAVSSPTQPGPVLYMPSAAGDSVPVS
# Setting: RNA with constant flanks, vertebrate orthologous sites, ends assumed
# All sequences stand within: GGGAGUUCUACAGUCCGACGAUC … CAACAGAGGAUUGAGCAUCA
Oligonucleotide,bound/input enrichment [ratio]
AAUGAGCUGCUGGGGCAGGAAGAUGGGUUUCCUUUCACCCCUCUCAAGGAAAAACCCAAACUGAUUCCUUAACCAUCUAACUAGACUACCACAGGUUAGCUUUAUGUUUUGUUUUGCUUU,0.752
UGCAGGCACAACUGACUAGUUCACAGCAUUCCUUACAUAGUUAUUUAUCAAAUACAAGUGGAGUUAAUUUUCAGGAUACAUCCAGACAGUCAGCAUUGUCCUGCAGUCCAGUUGGAGAUG,0.948
GUGUUGGUGCAGGAUAGAGGGGAGGGAGAGGCAGGAAAGUGUGGAAUCUCUGGGGUGUUACAAGUAGGUAGUGGGCAUAAUUAGUUCUAAGUGGCCCUUUAUGUUAAAAACCCCUGGAAG,1.42
GAUUUGGACCUUGGAGCCGAACCAGGGAGCUAGCAAAAGUAAAGCAGACUUGUAAAAUUAUAGCCAUAUGCAGCUGCACAGCAACAGUACUACCACUAGCAGCUGUGUUAAAGUAUUUAU,0.727
AUCCCUCAGUGACAGUAUGCCUUCUGUAGCAGAUUCCCACUCUAGUCAUUUUUCUGAAUUUAGUUGUUCUGACCUAGAAAGCAUGAAAACUUCUUGUAGUCAUGGUUCCACUGAUUAUCA,2.8
AAAUUUAUUUCAUGCCCUGGACGCCCUACCGCACCGAUACUUUAAUAGAAUAUGCUUCUUUAGAAGAUUUCCAAAACAGUCGCCAAACAACAACAUACAAACUCCCAAAUCGAGUCGAUG,1.51
UUACAGUCAUUGAUGGACUCUAUUUUUUUAUUAUUACUUGGACCUUGGUCGUUUUUAUACUAGCAACGAAAAAUGUCUUGUUUUAAUUUGUUUUUUGGGGGUAUGGGGUGGGAAGUGUCU,0.63
CUGUUGUGUGAAACAUGUCUACCCAGAAAAGUAAUAUUCUAUAAAUACUAUUAAAAAACUUAGCUAUAUUAUUUUUAAGCAUUAAAUUAUAUGUCAAGGAGUUAAAGUGAAUUUCAGAGU,0.494

# Sample 2 — method: RNA Bind-n-Seq; molecule type: RNA; sample: in vitro; tested at: 365 nM; baseline: no-protein control; direction: higher = stronger binding
# Target: RNA binding protein fox-1 homolog 2, RRM domain, GST-SBP tag (RBFOX2, Homo sapiens, UniProt O43251-10, residues 100-194)
# Setting: natural RNA segment, single round, ends assumed
# All sequences stand within: GGGAGUUCUACAGUCCGACGAUC … UGGAAUUCUCGGGUGCCAA
# Construct (chain): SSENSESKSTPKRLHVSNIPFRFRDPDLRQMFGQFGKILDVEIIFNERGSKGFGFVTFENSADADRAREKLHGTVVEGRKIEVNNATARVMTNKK
Oligonucleotide,RBNS enrichment (R)
CAUGAAUGAAAUUAAUUCUGUCCAAGCCAGCAUGGUGGCUUCAUAUUAAGUAGUAACAGAAGUCUGAACAAUUGGAUAAAUUUGACUUCCAAGACAGCUAAACUUUUCAA,15.1
CAUUCUUAACCAAGGCUGCCUCUUCCAACAGGGCGGGAAUCAGACCUACUCCCCUAGGUCACAACUCUGGGAAGGAUACAGAGCCCCCACCCUUCACUGAGUUCUCUGGA,0.251
CUACUGUGUGUGUGAGAUCCUAUAUACCAGCAUGUACCAAGAAUGUGUGUGUAGUUUUAAUUAUGCUGCAAUGUAUAAUCUGGUGUGUUAUUUAAACAGCACUAGUACUG,3.78
UGUAUAGGGGUUAUAGUGGGGAAGUGGAUAGGGGAUUCAUUUUCUUAUGUGACAUUUUGCCUUAAGAAUAUAAAAGUGCUUUAGCACUGAUGGCUGGCAUUUUUAAUAUA,1.02
AGAGGGUGAGAUGGAUCCCAUUAACUAAUAUAGGCAUUGUCAGUGAUUUAUGCUGGUGGAGGUGUUGUUUGUCCUAUGGAAGAUAUUUUCUACUGAGCUGGGCUACUGUA,0.682
CCGGUCGGGGCCAUCCCUCCACACUCUGCAUCCUACCCCACCUACCCAACACACUUUUCCACCUGGGAGCCUGUGCCCUCAGACCGCCCCGCACCAGAGCCACGGGCUGU,2.34
UUUGUGAAGGUUUUUAUCUGUGUAGAAUGGGUGUUUGACUUGUUUUAGCCUAUUAAAUUUUUAUUUUCUUUCACUCUGUAUUAAAAGUAAAACUUACUAAAAGAAAAGAG,1.18
CAUGUCUUUGGCCAUGUAGAUUAAGUGUAGGCGUCCGGUUCAUUCUUACCUGUGUUAGGCCAUGUUAUUUUAUAGCGAAGUCAUGUUCGAUAGGGAUGGUAUGAAAUGCU,0.325

# Sample 3 — method: universal PBM; molecule type: double-stranded DNA, one strand shown; sample: in vitro; tested at: 600 nM; direction: higher = stronger binding
# Target: Sal-like protein 4, full length isoform A (SALL4, Homo sapiens, UniProt Q9UJQ4, residues 1-1053)
# Chain of UniProt Q9UJQ4 (whole entry, looked up): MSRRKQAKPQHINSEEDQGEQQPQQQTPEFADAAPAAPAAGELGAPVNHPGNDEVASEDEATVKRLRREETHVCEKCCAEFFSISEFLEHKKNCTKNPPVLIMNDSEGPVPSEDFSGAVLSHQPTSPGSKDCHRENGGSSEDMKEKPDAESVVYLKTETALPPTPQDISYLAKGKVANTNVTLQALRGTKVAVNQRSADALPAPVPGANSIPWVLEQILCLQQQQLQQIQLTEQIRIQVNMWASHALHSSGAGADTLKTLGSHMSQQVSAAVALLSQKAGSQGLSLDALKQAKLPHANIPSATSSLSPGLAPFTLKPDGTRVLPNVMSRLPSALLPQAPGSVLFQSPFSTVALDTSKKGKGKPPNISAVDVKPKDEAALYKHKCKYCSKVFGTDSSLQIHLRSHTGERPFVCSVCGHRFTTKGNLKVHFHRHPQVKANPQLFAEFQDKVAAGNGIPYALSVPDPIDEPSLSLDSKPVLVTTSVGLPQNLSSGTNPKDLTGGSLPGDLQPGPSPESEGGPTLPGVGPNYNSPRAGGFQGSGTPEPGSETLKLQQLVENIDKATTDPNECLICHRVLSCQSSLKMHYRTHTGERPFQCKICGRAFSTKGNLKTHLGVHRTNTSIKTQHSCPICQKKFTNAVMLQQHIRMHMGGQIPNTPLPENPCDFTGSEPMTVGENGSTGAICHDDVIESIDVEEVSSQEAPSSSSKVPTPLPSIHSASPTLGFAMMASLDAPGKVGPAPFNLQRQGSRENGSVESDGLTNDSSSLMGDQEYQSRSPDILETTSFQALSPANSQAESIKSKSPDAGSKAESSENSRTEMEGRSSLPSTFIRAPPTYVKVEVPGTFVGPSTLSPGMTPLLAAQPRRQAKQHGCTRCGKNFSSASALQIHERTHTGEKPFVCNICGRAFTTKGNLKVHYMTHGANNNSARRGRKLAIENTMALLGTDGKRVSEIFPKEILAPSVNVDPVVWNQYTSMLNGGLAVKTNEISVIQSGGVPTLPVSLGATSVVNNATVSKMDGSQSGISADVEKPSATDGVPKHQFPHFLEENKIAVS
# Setting: 8-mer, flanks averaged, mean of replicates
Oligonucleotide,E-score
GGATTAAC,-0.0311
CGCGGGTA,-0.255
ACAGGGTA,-0.0636
CGTCAAGA,-0.0909
AGGCTTGG,-0.228
AAAGCAGG,0.0119
CCCGTCAA,-0.156
CCAGGGTC,-0.369
GACAAGTA,0.031
GACTGCTA,-0.0282
AGAGCATG,-0.0881
GAACTTCA,0.077
CTAGGGCC,-0.223
GAGCATCC,-0.299
CCAGCCGG,-0.313
ATAAGAAC,0.304

# Sample 4 — target: CCND2, cyclin fold, Cln2 fusion (human); method: yeast growth competition, sequencing; sample: yeast; setting: weak parent motif; baseline: not given; direction: higher = stronger binding
# Starting sequence: MASTL docking peptide (human); PMIAKNLMCELDE
Substitution,normalised enrichment score
PMIAKNLSCELDE [M8S],0.118
PMIAKNLHCELDE [M8H],-0.111
PMIANNLMCELDE [K5N],0.0648
PMIAKNLMCELLE [D12L],-0.0635
PMIAKNLMCELAE [D12A],0.293
PMIAKNLTCELDE [M8T],-0.00658
PPIAKNLMCELDE [M2P],0.205
PMIAKNVMCELDE [L7V],-0.403
PMIPKNLMCELDE [A4P],0.146
PMIAKNLMCELME [D12M],0.569
PFIAKNLMCELDE [M2F],0.0515
PMIAKNLMCMLDE [E10M],-0.01
PMIAKNLMSELDE [C9S],0.0752
PMIAKNLMCVLDE [E10V],0.206
PMIAKNLMCLLDE [E10L],0.185
PMIAKSLMCELDE [N6S],-0.0755
PMIAKNLMFELDE [C9F],0.189
PMIAKNLKCELDE [M8K],-0.0649
PLIAKNLMCELDE [M2L],0.327

# For quick reference, copied from above (sample 3):
Oligonucleotide,E-score
CTAGGGCC,-0.223
AGGCTTGG,-0.228
ATAAGAAC,0.304
CGCGGGTA,-0.255
